Published values gathered from unrelated publications.
Lines come from different studies, so protocols differ. Several values in a cell are separate wells, animals, samples, runs or records. Numbers after ± are the reported error.
Nuclear receptor subfamily 2 group C member 2 ligand-binding domain: Nuclear receptor subfamily 2 group C member 2, ligand-binding domain (Homo sapiens, UniProt P49116)
Chain of UniProt P49116 (whole entry, looked up): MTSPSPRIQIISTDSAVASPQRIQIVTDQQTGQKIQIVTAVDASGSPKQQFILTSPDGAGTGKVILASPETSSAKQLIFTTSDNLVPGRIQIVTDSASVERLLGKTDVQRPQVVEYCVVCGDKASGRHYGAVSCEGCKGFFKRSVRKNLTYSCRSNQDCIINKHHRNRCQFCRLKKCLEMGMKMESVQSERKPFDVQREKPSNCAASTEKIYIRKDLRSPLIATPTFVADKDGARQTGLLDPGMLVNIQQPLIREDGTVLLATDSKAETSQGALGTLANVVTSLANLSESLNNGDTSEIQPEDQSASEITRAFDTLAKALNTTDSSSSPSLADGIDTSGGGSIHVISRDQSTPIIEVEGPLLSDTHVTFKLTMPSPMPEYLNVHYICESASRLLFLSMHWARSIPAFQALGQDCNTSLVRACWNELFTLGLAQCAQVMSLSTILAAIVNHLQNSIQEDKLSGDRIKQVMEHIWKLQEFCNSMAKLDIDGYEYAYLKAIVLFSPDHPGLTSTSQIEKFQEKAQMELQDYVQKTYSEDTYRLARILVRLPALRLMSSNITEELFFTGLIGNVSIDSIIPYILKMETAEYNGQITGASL

SMILES	target or system	assay	test system	setting	scale	quantity	result
O=C(O)CC[C@H](NC(=O)N[C@@H](CCCCNC(=O)[C@H](Cc1ccc2ccccc2c1)NC(=O)CCCCCNC(=O)CN1CCN(CC(=O)O)CCN(CC(=O)O)CCN(CC(=O)O)CC1)C(=O)O)C(=O)O [gallium-68 labelled]	–	gamma counting	mouse, 22Rv1 xenograft, muscle	intravenous, 3.7 MBq, 2 h	–	tissue uptake	2.29 ± 0.36 %ID/g
COc1cc(NC(C)CCCN)c2ncccc2c1 (centres unmarked)	Nuclear receptor subfamily 2 group C member 2 ligand-binding domain	SPR imaging	–	–	–	Kd	16.3 nM
Cc1nc2cc(N(Cc3ccc(F)cc3)Cc3ccc(F)cc3)ccc2s1	sample A patient iPSC-derived NPCs	MTS	–	10 µM, 24 h	relative to: vehicle	viability	100 ± 1.59%
CC(C)[C@H](N)C(=O)N1CCC[C@H]1B(O)O	MV4-11	annexin V/PI flow cytometry, refers to: annexin V- PI-	–	2 µM, 24 h	–	viable cells	65.4%
COc1cc2ncnc(Nc3ccc(Oc4ccccc4)cc3C)c2cc1OC.O=C(O)C(F)(F)F	COLO 205 (BRAF V600E)	resazurin	–	concentration not given, 72 h, together with: trametinib	direction not given	Bliss synergy score	-54.3%
CCn1cc(-c2cc(Cn3ccoc3=N)cc3c2CCN([C@@H](C)c2cc(OC)ccn2)C3=O)c(C(F)(F)F)n1	HCC1954	cell growth, inhibitor	–	120 h	–	EC50	2710 nM
O=C1CCc2c(ccc3ccccc23)O1	OCI-Ly1	–	–	1 µM, 120 h	–	viability	148%
COc1cc(O)c2c(c1)C(=O)c1cc(C)cc(O)c1C2=O	HepaRG co-cultured with HK-2	MTT	–	16.67 µM, 24 h	relative to: untreated control	cell viability	116 ± 14.8%
Nc1cccc2c1C(=O)N(C1CCC(=O)NC1=O)C2=O (centres unmarked)	RPMI-8226	flow cytometry, refers to: CD147	–	concentration not given	relative to: comparator compound alone	surface marker level	163%
Cn1cc(-c2ccc(-c3cncc(Cl)c3N3CCC4(CCNC4=O)CC3)cc2)cn1	COLO 205	gene expression, microarray, refers to: PLAUR mRNA	–	concentration not given, 6 h	relative to: untreated cells	log2 fold change	1.71
CC(C)C[C@H](NC(=O)C[C@H](O)[C@H](CC(C)C)NC(=O)[C@H](Cc1c[nH]cn1)NC(=O)CNC(=O)[C@@H](NC(=O)[C@H](C)NC(=O)[C@H](Cc1c[nH]c2ccccc12)NC(=O)[C@H](CCC(N)=O)NC(=O)[C@@H](Cc1ccccc1)NC(=O)COCCOCCNC(=O)CCC(C(=O)O)N1CCN(CC(=O)O)CCN(CC(=O)O)CCN(CC(=O)O)CC1)C(C)C)C(N)=O (some centres unmarked) [lutetium-177 labelled]	–	–	female BALB/c nu/nu mice, tumor	intravenous, 50 pmol, 24 h	–	tissue uptake	4 ± 1 %ID/g
O=C(O)c1ccc(C(=O)O)cc1	human cells	reporter gene, agonist, luciferase reporter	–	–	relative to: positive control	fitted curve top	0%
CCCN1CCN(c2ccc3[nH]c(-c4ccc5[nH]c(-c6ccc(C(F)(F)F)cc6)nc5c4)nc3c2)CC1	786-0	cell growth, NCI-60 SRB	–	10 µM, 48 h	–	growth percent	-90.2%
C[C@H]1[C@H](C)CC[C@]2(C)CC[C@]3(C)C(=CC(=O)[C@@H]4[C@@]5(C)CC[C@@H](O)[C@](C)(C(=O)NCc6cn(-c7cccc(Br)c7)nn6)[C@@H]5CC[C@]43C)[C@H]12	human PBMCs	flow cytometry	–	10 µM	relative to: CD8+ T cells	TIGIT positive cells	8.36%
[Cl-].[Cl-].[Ru+2].c1cnc2c(c1)ccc1cccnc12.c1cnc2c(c1)ccc1cccnc12.c1csc(-c2ccc(-c3ccc(-c4ccc(-c5nc6c7cccnc7c7ncccc7c6[nH]5)s4)s3)s2)c1	SK-MEL-28	–	–	normoxia, together with: green light 523 nm	–	phototherapeutic index	1600
O=C(Nc1nnc2n3c(Cc4ccccc4)n[nH]c3nc(-c3ccc(Cl)cc3)c1-2)c1ccccc1	A498	SRB	–	10 µM, NCI60 single-dose screen	relative to: untreated	cell growth	110%
COc1cc(/C=C/C(=O)N2CCC=CC2=O)cc(OC)c1OC	MDA-MB-468	quantitative RT-PCR, refers to: Nestin	–	30 µM, 8 h	relative to: untreated	mRNA level	97.1 ± 6.2%
Nc1nc(OCc2cc(Br)cs2)c2[nH]cnc2n1	OCI-Ly1	–	–	0.5 µM, 120 h	–	viability	113%
Cc1onc(-c2ccccc2)c1-c1ccc(S(N)(=O)=O)cc1	COS-7	–	–	100 µM, 24 h, 0.1% DMSO, unit not given	relative to: control	apoptosis	1.05 ± 0.28
Cc1cc(Nc2ccc(NC(=O)c3ccc(Nc4ccnc5ccccc45)cc3)cc2)nc(N)n1	OCI-Ly1	–	–	0.1 µM, 120 h	–	viability	88.5%
COc1cnc2cccc(N3CCc4c(cc(Cn5ccnc5C)cc4-c4cn(C)nc4C(F)(F)F)C3=O)c2c1	Lu-65	cell growth, inhibitor	–	120 h	–	EC50	927 nM
O=C(CCCCCCC(=O)NO)NO	OCI-Ly1	–	–	1 µM, 120 h	–	viability	124%
CCN(CCO)CCCC(C)Nc1ccnc2cc(Cl)ccc12 (centres unmarked)	hiPSC-derived ventricular cardiomyocytes	current clamp, externally paced	–	10 µM	relative to: pre-drug control	APD90 prolongation	315% and 57.3% and 80.4% and 126% and 92.2% and 84.6% and 124% and 74.2%
N=C1NC(=O)/C(=C/c2ccc(O)cc2)S1	OCI-Ly1	–	–	1 µM, 120 h	–	viability	147%
COc1ccc(NC(=S)N/N=C/c2cccc3cc4ccccc4nc23)cc1	HeLa	PI flow cytometry	–	IC25, 48 h, together with: N-acetylcysteine	–	G2/M phase cells	10.4 ± 0.6%
O=C(NCc1ccccc1)c1c(/N=C/c2c(O)ccc3ccccc23)sc2c1CCCC2	OCI-Ly1	–	–	0.5 µM, 120 h	–	viability	65.2%
[H]/N=C(/N)NS(=O)(=O)c1ccc(N)cc1	Nuclear receptor subfamily 2 group C member 2 ligand-binding domain	SPR imaging	–	–	–	Kd	1.71 nM
CC(C)[C@H](C(=O)Nc1ccc(C(=O)NO)cc1)c1ccccc1	OCI-Ly1	–	–	1 µM, 120 h	–	viability	8.6%
COc1cc(/C=C/c2ccc(O)cc2)cc(OC)c1	iPSC-derived cardiomyocytes	concentration-response fit	–	–	relative to: vehicle	fitted bottom MyBP-C/MYH ratio	0%

Excerpt of the above:
SMILES	target or system	assay	test system	setting	scale	quantity	result
[Cl-].[Cl-].[Ru+2].c1cnc2c(c1)ccc1cccnc12.c1cnc2c(c1)ccc1cccnc12.c1csc(-c2ccc(-c3ccc(-c4ccc(-c5nc6c7cccnc7c7ncccc7c6[nH]5)s4)s3)s2)c1	SK-MEL-28	–	–	normoxia, together with: green light 523 nm	–	phototherapeutic index	1600
O=C(Nc1nnc2n3c(Cc4ccccc4)n[nH]c3nc(-c3ccc(Cl)cc3)c1-2)c1ccccc1	A498	SRB	–	10 µM, NCI60 single-dose screen	relative to: untreated	cell growth	110%
COc1cc(/C=C/C(=O)N2CCC=CC2=O)cc(OC)c1OC	MDA-MB-468	quantitative RT-PCR, refers to: Nestin	–	30 µM, 8 h	relative to: untreated	mRNA level	97.1 ± 6.2%
Nc1nc(OCc2cc(Br)cs2)c2[nH]cnc2n1	OCI-Ly1	–	–	0.5 µM, 120 h	–	viability	113%
